Published values from different studies.
Numbered parts are unrelated; each lists some results of a single study.

Study 1
Target: Histone acetyltransferase KAT6A, winged helix 1, GST fusion (KAT6A, Homo sapiens, UniProt Q92794, residues 1-85)
Technique: protein binding microarray
Molecule type: double-stranded DNA, one strand shown
Medium: in vitro
Tested at: not given
Setting: 8-mer, flanks averaged, mean of 2 arrays, mostly near background
Relative to: not given
Direction: higher = stronger binding
Construct (chain): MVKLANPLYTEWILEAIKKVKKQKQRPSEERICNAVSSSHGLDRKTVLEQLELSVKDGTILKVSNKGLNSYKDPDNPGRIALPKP
For `CGGTTACC`, the E-score was 0.278.
`ATACGGAG` has an E-score of 0.208.
The E-score of `GCTTACGA` is reported as -0.0604.
With `AGGGAGAC` the E-score was -0.0757.
`AGATTGAC` has an E-score of 0.0431.
`GAAGTCTC` gave an E-score of -0.0999.
For `ACTTTCCA`, the E-score was -0.325.
With `AGTAACAA` the E-score was -0.0147.
With `ACTTACCT` the E-score was -0.215.
The E-score of `ACGACTAA` is reported as -0.0539.

Study 2
Target: Interferon regulatory factor 3, full length, phosphomimetic (IRF3, Homo sapiens, UniProt Q14653, residues 1-427, S386D/S396D/S398D/S402D/T404D/S405D)
Chain of UniProt Q14653 (whole entry, unmodified, looked up): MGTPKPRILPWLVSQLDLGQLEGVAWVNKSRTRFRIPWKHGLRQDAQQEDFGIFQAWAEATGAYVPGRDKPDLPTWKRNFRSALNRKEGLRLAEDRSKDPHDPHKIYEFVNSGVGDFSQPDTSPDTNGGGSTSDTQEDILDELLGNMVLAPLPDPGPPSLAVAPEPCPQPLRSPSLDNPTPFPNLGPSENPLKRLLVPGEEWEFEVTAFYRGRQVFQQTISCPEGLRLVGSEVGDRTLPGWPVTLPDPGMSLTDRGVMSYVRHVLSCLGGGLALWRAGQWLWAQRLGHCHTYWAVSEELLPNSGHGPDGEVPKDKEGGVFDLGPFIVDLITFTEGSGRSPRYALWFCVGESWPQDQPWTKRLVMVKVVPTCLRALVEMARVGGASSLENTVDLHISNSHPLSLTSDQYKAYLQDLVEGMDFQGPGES
Technique: protein-binding microarray
Molecule type: double-stranded DNA, one strand shown
Medium: in vitro
Tested at: 2540 nM top
Setting: 60-bp whole probe
With: salmon DNA 0.4 mg/ml
Relative to: random background probes
Direction: higher = stronger binding
Shared flanks, not repeated: GCCTAGCAC … GTCTTGATTCGCTTGACGCTGCTG
Under “fitted relative affinity”, `TTAGATATCGGGACTTGATTAGTGCTA` is recorded as -0.143 z-score.
`TTAGGATTCGGTTTCGGTTAGTGCTAG`: “fitted relative affinity” 8.14 z-score.
`TTAGAACTGGGGTTTGGATTAGTGCTA`: “fitted relative affinity” -0.738 z-score.
`TTAGGACTGCTACTTCTTTAGTGCTAG`: “fitted relative affinity” -0.282 z-score.
For `GACGGTTTCGGTTCCGAGACGTGCTAG`, “fitted relative affinity” read 9.44 z-score.

Study 3
Target: Sal-like protein 4, full length isoform A (SALL4, Homo sapiens, UniProt Q9UJQ4, residues 1-1053)
Chain of UniProt Q9UJQ4 (whole entry, looked up): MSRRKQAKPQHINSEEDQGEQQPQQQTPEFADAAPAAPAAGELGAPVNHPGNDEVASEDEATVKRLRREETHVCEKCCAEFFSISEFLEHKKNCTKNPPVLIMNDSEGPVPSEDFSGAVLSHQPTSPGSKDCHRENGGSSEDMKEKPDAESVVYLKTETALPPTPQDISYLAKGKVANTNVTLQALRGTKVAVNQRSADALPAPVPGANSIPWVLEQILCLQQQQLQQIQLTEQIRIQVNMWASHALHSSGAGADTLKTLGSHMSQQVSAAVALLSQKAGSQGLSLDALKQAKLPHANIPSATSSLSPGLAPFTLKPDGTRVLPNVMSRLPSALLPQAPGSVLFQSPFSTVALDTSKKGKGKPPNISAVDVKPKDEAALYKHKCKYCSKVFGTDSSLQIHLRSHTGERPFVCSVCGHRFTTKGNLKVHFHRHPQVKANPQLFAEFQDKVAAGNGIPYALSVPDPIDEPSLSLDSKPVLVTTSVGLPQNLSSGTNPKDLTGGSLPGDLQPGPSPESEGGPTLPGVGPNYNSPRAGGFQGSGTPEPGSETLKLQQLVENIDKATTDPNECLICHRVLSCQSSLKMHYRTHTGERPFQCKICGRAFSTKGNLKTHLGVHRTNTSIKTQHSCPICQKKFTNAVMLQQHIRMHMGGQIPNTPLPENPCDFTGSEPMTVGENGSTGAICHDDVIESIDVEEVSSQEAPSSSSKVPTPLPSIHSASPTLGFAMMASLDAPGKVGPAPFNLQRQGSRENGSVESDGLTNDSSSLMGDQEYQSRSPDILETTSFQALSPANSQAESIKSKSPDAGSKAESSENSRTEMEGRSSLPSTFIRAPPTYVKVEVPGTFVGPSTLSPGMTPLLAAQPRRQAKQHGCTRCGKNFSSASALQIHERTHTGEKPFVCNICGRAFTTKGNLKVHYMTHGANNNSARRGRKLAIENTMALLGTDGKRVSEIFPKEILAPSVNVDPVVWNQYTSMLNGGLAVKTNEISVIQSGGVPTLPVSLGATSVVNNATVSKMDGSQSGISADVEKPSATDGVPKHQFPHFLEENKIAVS
Technique: universal PBM
Molecule type: double-stranded DNA, one strand shown
Medium: in vitro
Tested at: 600 nM
Setting: 8-mer, flanks averaged, mean of replicates
Direction: higher = stronger binding
`AGCAACGG` gave an E-score of -0.154.
With `GAATCGCA` the E-score was -0.123.
`CCATCGAA` has an E-score of 0.0086.
For `ACATGACA`, the E-score was 0.17.
The E-score of `CGCCGATA` is reported as -0.136.
`AATACTTG` has an E-score of 0.212.
The E-score of `GGTCTCTA` is reported as -0.036.

Further values, each from its own experiment
The fold induction of `PhoQ, residues 284 288 289 292 302 303 NLGVHL` is reported as 4.27 (PhoP, residues 12 14 15 18 19 NQGLL (Escherichia coli, UniProt P23836); Sort-seq, refers to: YFP reporter; E. coli; PhoQ-PhoP variant library, with: 10 µM Mg2+; relative to: high Mg2+ state, higher = stronger signaling).

For quick reference, copied from above (study 1):
The E-score of `ACGACTAA` is reported as -0.0539.
